Published values from different studies.
Parts stem from different laboratories: compare values within a part only.

Block 1 — method: protein-binding microarray; form: double-stranded DNA, one strand shown; sample: in vitro; tested at: 940 nM top; setting: 60-bp whole probe; together with: salmon DNA 0.4 mg/ml; relative to: random background probes; direction: higher = stronger binding
Target: Interferon regulatory factor 5, full length, phosphomimetic (IRF5, Homo sapiens, UniProt Q13568-2, residues 1-514, S451D/S453D/S456D/S462D)
Shared flanks, not repeated: GCCTAGCAC … GTGCTAGGTCTTGATTCGCTTGACGCTGCTG
Oligonucleotide | fitted relative affinity [z-score]
GACGGTCTCGGACAGGGGAC | 0.599
GACGATATCAGTCTGGAGAC | -0.367
GCCATTGTGGATCTTGCAGA | -0.42
ACCTGTTCCCTCATCAGGCT | 0.775
TTACGTCTCCTTCTCCTTTA | 1.2
TATTATTTGCCTTGCATTTT | 0.226

Block 2 — method: competition protein-binding microarray; form: double-stranded DNA, one strand shown; sample: in vitro; tested at: 2 µM; together with: Pho4 competitor, 0.05 µM; direction: higher = stronger binding; shared flanks, not repeated: … GTCTTGATTCGCTTGACGCTGCTG
Target: Centromere-binding protein 1, full length, His-tagged (CBF1, Saccharomyces cerevisiae, UniProt P17106, residues 1-351)
Chain of UniProt P17106 (whole entry, looked up): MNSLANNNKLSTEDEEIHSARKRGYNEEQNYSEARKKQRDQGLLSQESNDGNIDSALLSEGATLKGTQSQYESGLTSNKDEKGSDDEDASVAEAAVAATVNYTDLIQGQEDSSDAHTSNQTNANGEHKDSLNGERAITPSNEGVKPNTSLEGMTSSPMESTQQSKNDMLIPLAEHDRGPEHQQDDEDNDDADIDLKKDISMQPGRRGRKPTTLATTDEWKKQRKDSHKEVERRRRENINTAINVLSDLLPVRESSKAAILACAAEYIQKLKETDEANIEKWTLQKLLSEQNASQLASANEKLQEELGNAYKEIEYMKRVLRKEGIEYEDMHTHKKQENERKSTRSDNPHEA
Setting: whole 60-bp probe, lowest competitor level
Oligonucleotide | fluorescence intensity [a.u.]
TACAAGACTCCGAGTCACATGAAACCACACCTTCGG | 394
CCGCTGTTTTATTAGCACGTGACGGATTGAAACGAC | 10600
TTGAAGAGGATTTGACTCGTGTTGACAAGGCAATCA | 81.1
CATGCTGTAGCTATCGTCGTGATGGCTTTTACTGGC | 82.8
CATGTTTTGCCCGAAATCGTGCCAGTGATAAATCGG | 96.2
CATACCCAACCTTGTCACCTCACTTAAGATATTTGT | 73.4

Block 3 — method: aptamer microarray, sandwich; form: DNA with 2'F-ANA; sample: in vitro; tested at: 200 nM; together with: Cy3 exosite-II aptamer, 400 nM; direction: higher = stronger binding; oligonucleotide: GGTTGGTGTGGTTGG
Target: Prothrombin, mature alpha-thrombin (F2, Homo sapiens, UniProt P00734)
Setting: whole 15-mer aptamer, many near background
Modification | mean fluorescence intensity [a.u.]
2'F-ANA at 1 2 3 5 6 7 8 10 11 12 13 | 65.3
2'F-ANA at 3 4 6 7 8 11 12 | 779
2'F-ANA at 2 3 4 6 9 10 11 12 13 14 15 | 140
2'F-ANA at 2 3 4 6 8 10 11 12 13 14 15 | 154
2'F-ANA at 2 3 9 11 12 13 14 | 450
2'F-ANA at 3 7 9 14 | 612
2'F-ANA at 4 6 7 9 11 15 | 169
2'F-ANA at 2 4 6 8 13 14 15 | 84.7
2'F-ANA at 1 2 3 4 10 12 14 15 | 52.1
2'F-ANA at 3 4 5 8 10 13 14 | 45.5

Further values, each from its own experiment
Molecule | target | assay | system | setting | scale | quantity | result
PhoQ, residues 284 288 289 292 302 303 WSHMKI | PhoP, residues 12 14 15 18 19 TPWTL (Escherichia coli, UniProt P23836) | Sort-seq, item: YFP reporter | E. coli | PhoQ-PhoP variant library, together with: 10 µM Mg2+ | relative to: high Mg2+ state, higher = stronger signaling | fold induction | 1.18

Some of these lines once more (block 3):
Modification | mean fluorescence intensity [a.u.]
2'F-ANA at 4 6 7 9 11 15 | 169
2'F-ANA at 3 4 5 8 10 13 14 | 45.5
2'F-ANA at 1 2 3 5 6 7 8 10 11 12 13 | 65.3
